# Experimental data collected from several papers.
# Every numbered part comes from another study and shows a few of its results, in no order. Changes are numbered by the printed parent chain.

# Series 1
# Target: Hepatocyte nuclear factor 3-alpha (Foxa1, Mus musculus, UniProt P35582, residues 1-468, full length assumed)
# Sequence of UniProt P35582 (whole entry, looked up): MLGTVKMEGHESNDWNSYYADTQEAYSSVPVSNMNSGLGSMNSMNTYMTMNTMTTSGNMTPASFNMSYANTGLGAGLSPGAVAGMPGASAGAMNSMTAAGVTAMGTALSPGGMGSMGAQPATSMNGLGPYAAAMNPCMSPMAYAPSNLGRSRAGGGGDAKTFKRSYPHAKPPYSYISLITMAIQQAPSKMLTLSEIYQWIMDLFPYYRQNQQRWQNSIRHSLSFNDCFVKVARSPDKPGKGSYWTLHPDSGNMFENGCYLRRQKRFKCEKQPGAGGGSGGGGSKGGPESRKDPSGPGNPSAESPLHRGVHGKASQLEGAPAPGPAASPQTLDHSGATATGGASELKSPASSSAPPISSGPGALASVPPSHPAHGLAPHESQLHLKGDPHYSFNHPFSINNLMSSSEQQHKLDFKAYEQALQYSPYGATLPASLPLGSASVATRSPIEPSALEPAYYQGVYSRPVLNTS
# Method: EMSA with sequencing
# Form: double-stranded DNA, one strand shown
# Matrix: in vitro
# Concentration: 10 and 20 nM
# Notes: whole designed probe, mean of two concentrations, ends assumed
# Relative to: negative control set to 0
# Reading: higher = stronger binding
# Shared flanks, not repeated: GTGAGCGGTGCCCATTGATGGGGAAC … TTTCACTGGGATCGTGGGGAC
Sequence,normalised bound fraction [ratio]
AGGACATAAGCCAGCCCAGATAACAAGCTAAGAAATTTGTTTAGGCAGAAGGGGGAGCTAGAGCAAATCAGTTCACATGCTCTCTCTGTCTCCAGATTACACTGTAGTATTACAGGTGTTAGACGGTAGCAAGTCCTAGAGAAGTGTGTTGTGTAAGTCACTGTCATTCAACATTGTAATCTGCTAGGTAAAA,0.0391
GATGTTAGCAATCAAAATACTTTTCAAAACATCTGAGTCTACAGAGGCTGATTTGAGCACATCCGGAGAATTGGGCTCCAAAAATATTAAAAGTAAACAGGGACATAAATTGTATGGATATATTATTCTAAATATTCCCATCTTTTCTCTGTTGCAAGTTTGTGAATGTGGGTGGAATGGGCTTATTAATGGA,0.247
CAATGCACTTCAAAGGAGAGCAGAATGCATTTCTTGTACAGAATTCCTGGATATGTTTGATCATTAGTTAGGGCAAGTAGTTTGACTTGAGGCTATTTACTCAGCAGGAATAAAAAGTACAGCATTGCTTCAACCAAGAGGAGTGCCCCATACCTTCCCCAAGCAGAATTTAATAATTTGATCTGTCAGAGGA,0.233
GCAGGTCCTGGAATCTGTCAGGGGTGGGACTCTGCCATCTTGTGGTTCAATAAGCTCTCCAGATGATTCTGATGCACATGTTTGAGAGCCACTTGTTTACATATAGCAGAGAAACCACCTGTCTCTCACCTCAAAGCTGACTCACCTGCAGAAACAATGAAAGATGATAATGACAGCCCCCCCAAAATACCTC,0.349
ATCTTCCCCCTCTTCCTTGCCCCACCAGCTCACCTTCCCGGGTATATTGGAGATAGGAAAATAAATAAAGCCGGCATTCGTTAACCCTCTTCTGGCGCAAACTGCACATTGGTCTGGATGAATCATGGTCCTTTGGCGACGCCAGGCTCCGGGAGAGCAAAGCACCGTGTCAGGGCCATGATCCGGGGTGGCC,0.295
GGTGAATGGATTAGCGCTTAAGTGATGAATCAACTCCAACATCACCCGCTACCCTCTGCCCCATCATACCCTCATAAATCACTGTGTCATTGTTATGTACATAGTCCAACAGGATATCCAGTAATTTTTCTGTGTACACTCAGACTCTGAAATTTGATTTGTATATTGGAATAGTTTGTTCCCATCTGATTTC,0.235
TTTTTTCTGTACAGGGAAAAATAGTGAATATTTCAAAATTGTGAAACAAAGAGTCTCTGGTTGCATAACTGGCAACTACTCATTAGACAATATGCAAACAAATGAGTGTGTCTGTGTTCCAATAAAACTGTATTTACAAAAGCAGAAGGCCACCCATGTGCCAATGTCCAAAGTTTCTCAACCAACCCCTGGT,0.377
TGTATCCATCTGGGCAGTATCTTCTCTGGGCCTGGCCTGTCATAGGTGCTTCAGGTTTCCCCATTTGAACCAGATACCAGTCGGGTTACCGGATGTTTGCTTAAAATGAGTCGGCTTCCTGCTATAATTCCTGTGCTGCTTCCAGCTAGGACTGATCGAATCAGTCTGGATTTTCCTTGGGGTGATCCGCAGG,0.13

# Series 2
# Target: RING finger protein unkempt homolog, zinc fingers 1-6, GST-SBP tag (UNK, Homo sapiens, UniProt Q9C0B0, residues 30-357)
# Sequence of UniProt Q9C0B0 (30-357, looked up): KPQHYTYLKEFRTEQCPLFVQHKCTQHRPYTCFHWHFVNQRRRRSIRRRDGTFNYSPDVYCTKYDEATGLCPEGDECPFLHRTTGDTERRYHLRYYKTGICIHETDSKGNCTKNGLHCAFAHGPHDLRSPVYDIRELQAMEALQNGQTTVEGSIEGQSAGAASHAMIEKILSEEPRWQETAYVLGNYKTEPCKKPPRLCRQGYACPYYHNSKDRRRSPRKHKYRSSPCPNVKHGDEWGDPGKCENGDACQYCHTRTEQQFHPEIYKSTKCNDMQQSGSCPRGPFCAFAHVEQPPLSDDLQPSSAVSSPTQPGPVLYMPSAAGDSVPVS
# Method: RNA Bind-n-Seq
# Form: RNA
# Matrix: in vitro
# Concentration: not given
# Notes: RNA with constant flanks, human-mouse chimeric sites, ends assumed
# Relative to: input RNA pool
# Reading: higher = stronger binding
# Shared flanks, not repeated: GGGAGUUCUACAGUCCGACGAUC … CAACAGAGGAUUGAGCAUCA
Sequence,bound/input enrichment [ratio]
AGUGUGCAGGAAUUCAUGACCUUUACAAGUCAACUGAUUGUGGAACGCUCGGGGAAAGGCAGCAGAGCUUCUGUCAAAGAACAAGAGUAUCUGUGCCAUGUCUACGUCCGGAAUGAUAGU,0.125
UUCAAAGGCUGUGUUAUCUGUGUCAUUUCAUAAGUAACUCUGGGGGAGGGAAAUUCUGUUCUUUUGUUUUUAGUUUUCCCAAAUGAAGCCAAAGUGUGUGUUGAAGAACUGAGAAAAAAU,0.528
AGAAUCUUGGGACUGUUUUACUUAAUUGGUCAUUGAUAGCUUAACAAACAUGGAGAUAAGAUUAGAAAUCUUGACAUCAACAGGUAUUAAGCAGAAAAAACCCUGGCCCAGAGUAUCCUG,0.136
AGAAAGCAAAACUUGGAACGAUUUAAGAAAGGAGACGUAAGAUUCUUGAUUUGCACAGAUGUAGCUGCUAGAGGGAUUGAUAUCCAUGGUGUUCCUUAUGUGAUCAACGUCACCCUGCCU,0.278
AUUGUUGAAGCGAAUCCACUUUUAGAAGCAUUUGGAAAUGCGAAGACUGUUCGCAACAAUAAUAGCAGUCGAUUUGGAAAAUUUGUAGAAAUUCAUUUCAAUGAAAAGAGCUCAGUUGUU,0.279
CCCUCCCCGGGCCACCCACCCCUCCCGCUCCCAGCGGGAGAUCCAGGUUUCUUCUGUUUUCAUAGCAAAUAAGAAAAAUGUUCUACGCACAUUUUGUCCUCAGUAAACGAGGGCCUCUGG,0.827
CUCAUGGCUGCAGAAACAGGAAGUGGAAAAACUGGUGCAUUUAGUAUUCCCGUUAUCCAGAUAGUGUAUGAAACUCUGAAAGACCAACAGGAAGGAAAAAAAGGAAAAACAACAAUUAAA,2
CCUCUGCCCCGCUCUGCCCCUGCCUGCCACUGGGCUGGGACCAGAAUCCAGCUUUCUUUUAAAACUCUCAGUGUAACUGUAUCCCGUGACAUUUCAUUUUUUUUAAAUAGUGUAUUUUUU,4.54

# Series 3
# Target: TAR DNA-binding protein 43, full length, His tag (TARDBP, Homo sapiens, UniProt Q13148, residues 1-414)
# Method: RNA Bind-n-Seq
# Form: RNA
# Matrix: in vitro
# Concentration: 20 nM
# Notes: 6-mer, flanks averaged, single round
# With: 150 mM KCl
# Relative to: input library
# Reading: higher = stronger binding
Sequence,6-mer enrichment (R)
GUGUCU,0.832
UUAUCA,0.552
UCCCGC,0.61
AGGGUC,1.85
CACCUA,0.635
AAUAAC,1.05
UCCUAA,0.575
CCCCGU,0.654

# Other studies, line by line
# Starting sequence: viral docking peptide; YKVKRRLVFGADD
Variant,target,test,test system,setting,how to read,measurement,value
L7P,"CCNF, cyclin fold, Cln2 fusion (human)","yeast growth competition, sequencing",yeast,strong parent motif,"relative to: not given, higher = stronger binding",normalised enrichment score,0.295

# Excerpt of the above (series 2):
Sequence,bound/input enrichment [ratio]
CCCUCCCCGGGCCACCCACCCCUCCCGCUCCCAGCGGGAGAUCCAGGUUUCUUCUGUUUUCAUAGCAAAUAAGAAAAAUGUUCUACGCACAUUUUGUCCUCAGUAAACGAGGGCCUCUGG,0.827
